Measured values from different studies.
Numbered parts are unrelated; each lists some results of a single study.

Block 1
Target: Fragile X messenger ribonucleoprotein 1, C-terminal low-complexity region (Fmr1, Mus musculus, UniProt P35922)
Method: RNA Bind-n-Seq
Form: RNA
Sample: in vitro
Concentration: 200 nM
Setting: whole 134-nt RNA, ends assumed
Added: 150 mM LiCl
Relative to: input library
Reading: higher = stronger binding
Measurement: log2 enrichment
Each molecule: 7-deaza-guanosine replaces G
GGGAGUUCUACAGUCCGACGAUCCUCAAGUCCUGUGCUACACAUCGUAUGUACCGAAUCGGGUUUGGUUUGGUUUGGAAAGUAUUAUGUUACGCCGUUCGGAUCUGCACUUCCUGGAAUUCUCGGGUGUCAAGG: -0.474
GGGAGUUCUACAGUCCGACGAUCAGAUGAACAAGAGAACUGGGCAACCCAUGAUCCACAUCUACCUGGACAAGGAAACAGGAAAGCCCAAAGGCGAUGCCACAGUGUCCUAUGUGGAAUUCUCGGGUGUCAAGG: -1.12
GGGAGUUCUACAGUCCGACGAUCAAGUCCUGUGCUACACAUCGUAUGUACCGAAUCGGGGUGGGGUUUGGGGAAAGGGGAAAGUAUUAUGUUACGCCGUUCGGAUCUGCACUUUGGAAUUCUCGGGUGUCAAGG: -1.13
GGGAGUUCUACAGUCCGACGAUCCUCAAGUCCUGUGCUACACAUCGUAUGUACCGAAUCGGGUGGGAAAGGGAGGGAAAGUAUUAUGUUACGCCGUUCGGAUCUGCACUUCCAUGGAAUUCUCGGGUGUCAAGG: 0.43
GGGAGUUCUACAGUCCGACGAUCGCAGGAAGUAAAAACAAAUGGAAAUGCUUCGGAUAGUGGCAGGGGUGGGGGUUGCUAAGGAAAGGGUGGGAUGGGAGUGGGUAGAGAGUUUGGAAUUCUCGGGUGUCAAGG: 1.24
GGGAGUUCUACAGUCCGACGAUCGCAGGAAGUAAAAACAUAUGGAAAUGCUUCGGAUAGUGGCAGGGGUGGGGGUUGCUAAGGAAAGGGUGGGAUGGGAGUGGGUAAAGAGUUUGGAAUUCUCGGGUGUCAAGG: 1.25
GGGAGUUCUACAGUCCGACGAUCUUGUAUUAAGACAACGCUCCUCGACUUAGAUGCCUUGGCAAGACAUUUGGCUGACUGUAUUCGAAGGUAAAAUUUGAUGUGAAAUUGACAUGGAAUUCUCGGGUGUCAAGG: -0.302
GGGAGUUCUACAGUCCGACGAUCAAGUCCUGUGCUACACAUCGUAUGUACCGAAUCGGAAAAAAAGGAAAAAGGAAAGGAAAGUAUUAUGUUACGCCGUUCGGAUCUGCACUUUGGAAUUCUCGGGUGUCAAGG: -1.83
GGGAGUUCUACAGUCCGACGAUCUUAGGCACUUGUUGGGCUCAUCACCGUUGUGUGGAGUGGUCACUAGGAGUAUGCCAGAUGGAAGAACCAUUGUUAGUGAACGUGGACAAAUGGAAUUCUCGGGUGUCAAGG: -0.599
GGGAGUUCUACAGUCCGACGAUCGUCCUGUGCUACACAUCGUAUGUACCGAAUCGGGAAAAAAAGGGAAAAAGGGAAAGGGAAAGUAUUAUGUUACGCCGUUCGGAUCUGCACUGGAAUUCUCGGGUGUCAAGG: 0.0379
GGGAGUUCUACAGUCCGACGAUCUCAAGUCCUGUGCUACACAUCGUAUGUACCGAAUCGGAAAGGUUUUUUUGGAGGAAAGUAUUAUGUUACGCCGUUCGGAUCUGCACUUCCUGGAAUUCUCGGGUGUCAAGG: -0.832

Block 2
Target: RING finger protein unkempt homolog, zinc fingers 1-6, GST-SBP tag (UNK, Homo sapiens, UniProt Q9C0B0, residues 30-357)
Method: RNA Bind-n-Seq
Form: RNA
Sample: in vitro
Concentration: not given
Setting: RNA with constant flanks, human and mouse sites, ends assumed
Relative to: input RNA pool
Reading: higher = stronger binding
Measurement: bound/input enrichment
Construct (chain): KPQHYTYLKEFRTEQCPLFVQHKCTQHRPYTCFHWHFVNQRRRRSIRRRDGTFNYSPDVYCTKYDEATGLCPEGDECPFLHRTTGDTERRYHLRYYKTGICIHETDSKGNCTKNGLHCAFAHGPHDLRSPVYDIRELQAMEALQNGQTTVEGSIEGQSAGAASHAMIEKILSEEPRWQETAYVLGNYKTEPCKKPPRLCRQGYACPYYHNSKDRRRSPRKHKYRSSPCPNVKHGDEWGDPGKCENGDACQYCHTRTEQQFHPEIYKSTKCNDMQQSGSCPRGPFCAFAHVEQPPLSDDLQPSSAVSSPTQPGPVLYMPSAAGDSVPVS
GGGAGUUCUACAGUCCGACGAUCGAAGCUACAUACCCAAAUACAUAUAUUUUUGACUUAUUUGGAGGUGUUGAUCUUCUUGUAGAAAUUCUUAUGAGGCCUACCAUCUCUAUCCGGGGACAGAAACUAAAAAUAAGUGACGAGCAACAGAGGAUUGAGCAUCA: 0.27 ratio
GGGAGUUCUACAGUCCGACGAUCAGCUUACUGUAUUAGUCAUUUUUAGCCCAUAAUUAAAACAUGAUCACUUUUACACAGGUGUAGUAUGGUGCAUUUCAUUCCUUAUUUAUAAAUUAACUGAAAUUACAGUUUGCUAUAAUACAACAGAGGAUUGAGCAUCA: 14.2 ratio
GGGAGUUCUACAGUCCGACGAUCAGCUUGAGCAGUUUGUUAAAGAAUGACAUUUCAGAUUCGGGAAUUGUGGGGCUUCAGCCCAUAGACUUUGUCGCCAGUGCUCAUCAGCAUCCAGUGAGUGAGAGGCAAGAGGAGAUUCCCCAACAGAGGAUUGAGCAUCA: 0.223 ratio
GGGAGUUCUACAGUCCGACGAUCGAAAGCACUACCCUAAGCCAUGAAGAACUCCAUGCUUUGCUAACCAAGAUAACUGUUUUCUCUUUGUAGAAGUUUUGUUUUUGAAAUGUGUAUUUCUAAUUAUAUAAAAUAUUAAGAAUCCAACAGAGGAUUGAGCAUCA: 1.15 ratio
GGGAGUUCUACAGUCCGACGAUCACAAGGCAAAGCCUGCUCUCUCUGUCUCUCUGUCUCCUCUUCUCCUUUUUUGCCUUAUUCUAUCCGAUUUUUUCCCUAAGCUUCUACCUGGGAUUUUCCUUUGGAAAAGUCUCUGAGGUUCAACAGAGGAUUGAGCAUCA: 0.219 ratio
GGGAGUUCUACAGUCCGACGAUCAAAUGUACCACCUGUCAUUUCAACACCUCACCACUACCUCAUCAGUAUCUACCGGGAUAAGCUCUUCUUUGUAUCUGUCAUACAGACCGAAGUGCCACCUCUCUUUGUAAUUGAGUUCCUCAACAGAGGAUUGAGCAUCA: 0.333 ratio
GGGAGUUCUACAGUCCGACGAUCGUGGUAGCUUUCCAGAAUUUAUUCAACAAACCAACUGGAAUGAAUUCUUCAGUAGUGCCCUUGUCUCAGGGCCAAGUAAUUGUAAGCAUCCCCACAGGUUCCACAGUGUCAGCCGGAGGACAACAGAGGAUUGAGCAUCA: 0.474 ratio
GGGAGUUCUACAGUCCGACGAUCCCAAAAGCAGUAGUUUCUCCUCCUAAGUUUGUAUUUGGCUCAGAAUCUGUUAAAAGCAUUUUUAGUAGUGAAAAAUCCAAGCCAUUUGCAUUUGGCAACAGUUCAGCCACUGGUUCUUUGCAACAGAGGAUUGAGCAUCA: 0.18 ratio
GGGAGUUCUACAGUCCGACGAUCGCAUGGACACUACUGCUGACCAUAUGCCCAAUCAAUGAAGUGAAGAAAAAGCUUGAGAUGCAUUUCCAUAAGCUUCCAAGCCUCCUCUCUUGUGAUGAUGUAAACAUGAGAAUAGCUGCUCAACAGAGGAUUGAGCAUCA: 0.356 ratio
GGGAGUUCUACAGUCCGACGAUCGCUGGAGAGGAAAACUGAAAGAGGCUCUUAAAAAAAACUGUGAAGCUUACUACCUUUCUAUCUUUCAGGCCUUGGAUGACACCGAAAGGGGUUCAGGAGGUUUUGGUUCCACUGGAAAGACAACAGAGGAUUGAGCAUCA: 0.0914 ratio
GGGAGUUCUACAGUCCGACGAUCCUUGCUUUUUUGGUUCUCUACAAUUUCAUCAUUCCAAUUUCAUUAUAUGUGACAGUCGAAAUGCAGAAAUUUCUUGGAUCAUUUUUUAUUGGCUGGGAUCUUGAUCUGUAUCAUGAAGAACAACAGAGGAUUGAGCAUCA: 0.207 ratio

Block 3
Target: Sal-like protein 4, full length isoform B (SALL4, Homo sapiens, UniProt Q9UJQ4-2, residues 1-616)
Method: universal PBM
Form: double-stranded DNA, one strand shown
Sample: in vitro
Concentration: not given
Setting: 8-mer, flanks averaged, mean of replicates
Reading: higher = stronger binding
Measurement: E-score
Target sequence (chain): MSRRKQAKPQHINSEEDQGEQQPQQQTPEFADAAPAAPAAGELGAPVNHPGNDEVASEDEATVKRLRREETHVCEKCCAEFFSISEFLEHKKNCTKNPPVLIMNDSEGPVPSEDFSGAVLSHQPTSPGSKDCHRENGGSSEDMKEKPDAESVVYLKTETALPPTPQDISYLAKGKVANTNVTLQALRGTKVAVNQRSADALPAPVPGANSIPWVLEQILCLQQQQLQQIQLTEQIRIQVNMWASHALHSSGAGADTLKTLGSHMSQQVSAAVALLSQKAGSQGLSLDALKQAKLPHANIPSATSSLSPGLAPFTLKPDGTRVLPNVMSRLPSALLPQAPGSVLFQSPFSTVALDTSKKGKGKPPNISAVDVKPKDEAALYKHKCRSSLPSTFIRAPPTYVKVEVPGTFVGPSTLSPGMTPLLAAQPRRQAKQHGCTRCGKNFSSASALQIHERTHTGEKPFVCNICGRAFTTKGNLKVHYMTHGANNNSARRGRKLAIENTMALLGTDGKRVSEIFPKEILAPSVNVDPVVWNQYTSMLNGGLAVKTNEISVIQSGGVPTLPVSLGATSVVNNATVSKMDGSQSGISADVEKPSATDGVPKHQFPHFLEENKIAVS
AAAAATAG: 0.369
AGGCCAAT: 0.0695
GCCACCAC: -0.0988
AATTACAT: 0.285
GAGGACGC: -0.169
GCAGATGC: -0.218
GCTGTTGA: 0.0134
AGGCATAC: 0.0624
GCACTAAC: -0.0604
TAGCATAA: 0.234
CCGTTGCA: -0.0444
CTCTTTCA: 0.0337
CACACTAA: 0.141
GCTTCTAA: -0.0831
ATTCTAAC: 0.18
CATAAATG: 0.337
GAGGCACC: -0.366
GTGGTTCA: 0.0718
GTCGCGCA: -0.23
CTGTAGGA: -0.0761
AATACGAC: 0.159
CCGTTTTA: 0.058
ACGCGCAG: -0.331
CACTAGAG: 0.022
ATTAGAAT: 0.255

Block 4
Target: Interferon regulatory factor 5, full length, phosphomimetic (IRF5, Homo sapiens, UniProt Q13568-2, residues 1-514, K96S/S451D/S453D/S456D/S462D)
Method: protein-binding microarray
Form: double-stranded DNA, one strand shown
Sample: in vitro
Concentration: 250 nM
Setting: 60-bp whole probe
Added: salmon DNA 0.4 mg/ml
Relative to: random background probes
Reading: higher = stronger binding
Measurement: log fluorescence
All sequences stand within: GCCTAGCAC … GTCTTGATTCGCTTGACGCTGCTG
GCCGATCTCAGTTTCGAGACGTGCTAG: 5.01 z-score
GACGAAATCAGTATCGAGACGTGCTAG: 3.57 z-score
GAGGGTCTCGGACTGGGGACGTGCTAG: -0.363 z-score
CTTCACATATAATTTTGTCATGTGCTA: 1.31 z-score
TTAGGACTGCTTTTCCTTTAGTGCTAG: 0.0507 z-score
AGAGCTCTGGCACCTCTAGACGTGCTA: -0.783 z-score
GAAGATATCAGTATCGAGACGTGCTAG: 2.99 z-score
GACGATATCAGTATCAAGACGTGCTAG: 1.78 z-score
TCATTTTTCTAAGTAAAACTGTGCTAG: 0.976 z-score
GCCATTATGAGTCTTGAAGAGTGCTAG: -0.429 z-score
GTGTTTTCACTTTTCCTACAGTGCTAG: 5.62 z-score
TTACATTTTAATTTTATTTGGTGCTAG: 1.46 z-score
TCACATACGAGTTTCCAACTGTGCTAG: 0.415 z-score
GACGGTATCGACTATTGGGACGTGCTA: 2.29 z-score
GACGGACTGGGTATCCGGACGTGCTAG: -0.428 z-score
GTGAGTCCCGAGAATGGTGTGGTGCTA: -0.524 z-score
TCAGTTTTACAGGTTCTCACTGTGCTA: 0.479 z-score
GACGATATCATTATCGAGACGTGCTAG: 2.85 z-score

Excerpt of the above (block 3):
GCTTCTAA: -0.0831
ATTCTAAC: 0.18
CATAAATG: 0.337
GAGGCACC: -0.366
GTGGTTCA: 0.0718
GTCGCGCA: -0.23
CTGTAGGA: -0.0761
AATACGAC: 0.159
CCGTTTTA: 0.058
ACGCGCAG: -0.331
